Measured values from different studies.
“And” joins repeats or separate records; there may be more than shown. Numbers after ± are the reported error.

| Compound | test | system | conditions | how to read | measurement | result |
| --- | --- | --- | --- | --- | --- | --- |
| O=C(c1ccc(F)cc1)C1CCN(CCn2c(=O)[nH]c3ccccc3c2=O)CC1 | – | dog liver microsomes | – | – | hepatic clearance | 18.2 mL/min/kg |
| O=C(Nc1nc2cccc(-c3ccc(CN4CCS(=O)(=O)CC4)cc3)n2n1)C1CC1 | refers to: gastrointestinal pain | human rheumatoid arthritis patients | oral, 30 mg once daily, 4 weeks, regardless of relatedness | – | treatment-emergent adverse events | 0% |
| CN(C)N=Nc1[nH]cnc1C(N)=O | – | human patients, plasma | intravenous, 1000 mg/m^2 over 1 h, cycle 1 day 1, given alone | – | AUC(0-8h) | 96400 ng·h/mL |
| CN1C(=O)[C@@H](NC(=O)c2nnc(Cc3ccccc3)[nH]2)COc2cccnc21 | phase I single ascending dose | human, male and female | oral, 200 mg, fasted | – | participants with any AE of special interest | 0% |
| O=C(NCC1CCOCC1)c1ccc([C@H]2[C@@H](F)[C@@H](F)C[C@@H](F)[C@H]2F)cc1 | hepatocyte stability | cryopreserved human hepatocytes | 1 µM | – | hepatic clearance | 6.2 mL/min/kg |
| CCc1cc(C(=O)NC)c2nccc(N3CCc4c(cc(Cn5ccnc5)cc4-c4cn(C)nc4C(F)(F)F)C3=O)c2c1 | – | CD-1 mouse, male, plasma | intravenous, 3 mg/kg | – | AUC extrapolated | 0.1% |
| Nc1ccccc1/C=C/C(=O)c1ccccc1 | – | toluene | 20 °C | – | excitation maximum | 405 nm |
| Oc1ccc(/C=C/c2cc(O)cc(O)c2)cc1 | – | rat, azoxymethane-injected, blood at sacrifice | 100 mg/kg | – | inorganic phosphorus | 5.7 mg/dL and 4.5 mg/dL and 6.1 mg/dL |
| CC(C)(C(=O)N1CCOc2c(C#N)cncc2C1)C(F)F | – | human, both sexes | oral, 10 mg single dose | – | subjects with presyncope TEAE | 0% |
| CCN1/C(=C/C(C)=O)Sc2ccc(F)cc21 | – | cynomolgus monkey | oral, 100 mg/kg, 2 h post-dose | – | heart rate | 114 ± 21 beats/min |
| CN(C(=O)n1cnc(-c2cccnc2)c1)[C@H]1CC[C@H](O)CC1 | – | rat, hippocampus | oral, 10 mg/kg single dose, 24 h | – | tissue concentration | 15.8 ± 0.7 ng/g |
| O=C(NCCc1cccnc1)c1ccc(C2CCCCC2)cc1 | liver microsome stability | rat liver microsomes | 1 µM | – | hepatic clearance | 50 mL/min/kg |
| C=CC(=O)N1CCC([C@@H]2CCNc3c(C(N)=O)c(-c4ccc(Oc5ccccc5)cc4)nn32)CC1 | – | rat plasma | 800 ng/mL, 3 h, room temperature | baseline: nominal concentration | stability relative error | -2.6% |
| Oc1cccc(O)c1O | LC-MS/MS | male Ross 308 broilers, serum | oral, dose not given | – | serum concentration | not detected |
| Cc1ccc([C@@H]2O[C@H](CO)[C@@H](O)[C@H](O)[C@H]2O)cc1Cc1ccc(-c2ccc(F)cc2)s1 | – | Japanese type 2 diabetes patients | 200 mg, day 15, 24 h urine collection | baseline: baseline | urinary chloride excretion change | 7.19 mEq |
| C=CC(=O)NC1CCN(c2ncc3ncnc(Nc4ccc(Oc5ccc6c(c5)ncn6C)c(C)c4)c3n2)CC1 | – | human, male, plasma | oral, 30 mg single dose, fed, geometric mean | – | AUC(0-tz) | 4.06 µM·h |
| N#Cc1ccc2c(c1)[C@H]1CCCN(C(=O)c3ccc4[nH]cnc4c3)[C@H]1C2 | – | human | 80 mg, day 15 | – | median ACTH level | 7 pmol/L |
| N#Cc1cc(NC(=O)[C@H]2c3ccccc3C(=O)N(CC(F)(F)F)[C@@H]2c2cccnc2)ccc1F | – | human | 900 mg, 10 h post dose | – | venous methemoglobin | 1.7% |
| Cc1cn(C(=O)c2c(-c3c(Cl)cc(Cl)cc3Cl)noc2C(C)(C)F)c2cccc(/C=C/C(=O)O)c12 | – | human patients | 250 mg bid, cycle 1 day 1 | – | AUC(0-8h) | 56800 ng·h/mL |

| Compound | test | system | conditions | how to read | measurement | result |
| --- | --- | --- | --- | --- | --- | --- |
| COc1ccc2[nH]c([S+]([O-])Cc3ncc(C)c(OC)c3C)nc2c1 (stereo not drawn) | thermogravimetric analysis | raw compound | – | – | degradation onset temperature | 153 °C |
| CCCOc1ccc(NC(=O)CN2CCN(C)CC2)cc1-c1nc(CC)c(CC)c(=O)[nH]1 | – | Chinese healthy male subjects | 10 mg, together with: alcohol 0.5 g/kg | baseline: baseline | maximal pulse rate increase | 20.4 bpm |
| C[C@@H](Nc1cc(F)cc(F)c1)c1cc(C(=O)N(C)C)cc2c(=O)cc(N3CCOCC3)oc12 | – | advanced solid tumour patients | oral, 120 mg twice daily, continuous monotherapy | – | dose interruption due to AE | 40% |
| CSCC[C@H](NC(=O)[C@H](CCCCN)NC(=O)[C@H](CCCNC(=N)N)NC(=O)[C@H](CO)NC(=O)[C@H](Cc1c[nH]c2ccccc12)NC(=O)[C@H](CCCNC(=N)N)NC(=O)[C@H](CC(C)C)NC(=O)[C@@H](N)CCSC)C(=O)N1CCC[C@H]1C(=O)N[C@@H](CS)C(=O)N[C@H](C(=O)N[C@@H](CO)C(N)=O)C(C)C | 12G5 competition, SUP-T1 cells | human plasma | concentration not given, 8 h | – | remaining activity | 1 ± 0.3% |
| COCCC(=O)Nc1ccc(C2CCCCC2)cc1 | hepatocyte stability | cryopreserved mouse hepatocytes | 1 µM | – | hepatic clearance | 82 mL/min/kg |
| O=C(O)CCCOc1ccc([18F])cc1-c1cc(-c2ccccc2C(F)(F)F)n(-c2ccccc2)n1 | gamma counting | male ddY mice, pancreas | intravenous, 2.1 MBq, 60 min | – | radioactivity uptake | 0.21 ± 0.02 SUV |
| CNC(=O)c1ccc(-c2cnc3ncc(Cc4ccc5ncccc5c4)n3n2)cc1F | – | Japanese patients | oral, 400 mg, grade 3/4 | – | Cellulitis dose reduction/interruption | 1% |
| O=C(COc1ccc(Cl)cc1)NC12CC(c3nnc([C@H]4C[C@@H](OC(F)(F)F)C4)o3)(C1)C2 | refers to: Tachycardia | healthy humans, both sexes | oral, 400 mg, single ascending dose | baseline: subjects | treatment-emergent adverse events | 16.7% |
| O=C(CCC(C(=O)[O-])N1CCN(C(CCC(=O)NCC(O)CO)C(=O)[O-])Cc2cccc(n2)CN(C(CCC(=O)NCC(O)CO)C(=O)[O-])CC1)NCC(O)CO.[Gd+3] (stereo not drawn) | ICP-MS | rat, femur bone marrow | intravenous, 0.6 mmol Gd/kg, 1 week | – | Gd concentration | 2.6 nmol/g |
| CCCCC[C@H](O)CC[C@@H]1[C@H]2Cc3cccc(OCC(=O)O)c3C[C@H]2C[C@H]1O | LC-MS/MS | Japanese PAH patients ≥56.7 kg, plasma | inhaled, 54 µg | – | geometric mean AUC(0-last) | 0.83 ng·h/mL |
| C[C@H]1CN(C(=O)CC#N)[C@]12CCN(c1ncnc3[nH]ccc13)C2 | – | human | oral, 12 mg single dose | – | participants withdrawn due to AEs | 0% |
| CNCc1ccc(-c2[nH]c3cc(F)cc4c3c2CCNC4=O)cc1 | – | human patients | oral, 600 mg twice daily, grade 2 | – | dysgeusia incidence | 3.8% |
| CCOc1c([C@H](C)n2nc(C)c3c(N)ncnc32)cc(Cl)c(F)c1[C@@H]1CNC(=O)C1 | ECG | previously treated B-cell malignancy patients | oral, 5 mg once daily, baseline below thresholds | – | observations with HR ≤100 bpm | 100% |
| Cn1cc(Nc2nccc(-c3ccc4c(c3)CN(C3COC3)CC[C@H]4NC(=O)c3cn(C(C)(C)C)nn3)n2)cn1 | – | human, whole blood | 300 mg twice daily, day 7 | baseline: pre-dose baseline | CD3+ T cell count change | -2.17% |
| Cc1ccc(Sc2ccccc2N2CCNCC2)c(C)c1 | refers to: Headache | healthy adult men | oral, 20 mg daily, 12 days | – | participants with TEAE | 0% |
| COc1ccnc(C(=O)O)c1O | soil adsorption | tested soils | geometric mean | – | KFoc | 8870 mL/g |
| C=CC(=O)N(C)CCOc1c(N)ncnc1-c1cc(F)cc(NC(=O)c2ccc(C3CC3)cc2F)c1C | – | human, whole blood | oral, 50 mg once daily, day 1 | – | AUC | 116 ng·h/mL |
| CC(C)(C)NC(=O)C1CCN(Cc2ccc(/N=N/c3ccc(F)cc3)cc2)CC1 | – | DMSO | 25 µM, 25 °C | – | absorption maximum, trans isomer | 335 nm |
| NC(=O)CCNC(=O)c1ccc(C2CCCCC2)cc1 | liver microsome stability | rat liver microsomes | 1 µM | – | hepatic clearance | 40 mL/min/kg |

| Compound | test | system | conditions | how to read | measurement | result |
| --- | --- | --- | --- | --- | --- | --- |
| O=C1OC2(c3ccc(O)cc3Oc3cc(O)ccc32)c2ccccc21 | confocal imaging | cargo-loaded PSP-2 coacervates in Opti-MEM | concentration not given, together with: cargo 5 µM | – | saturation concentration | 10 to 25 µM |
| O=C(Cc1cccnc1)Nc1ccc([C@H]2[C@@H](F)[C@@H](F)C[C@@H](F)[C@H]2F)cc1 | – | cryopreserved mouse hepatocytes | 1 µM | – | hepatic clearance | 23 mL/min/kg |
| CNC(=O)c1ccc(-c2cnc3ncc(Cc4ccc5ncccc5c4)n3n2)cc1F | – | human, moderate NCI classification, plasma | oral, 200 mg, adjusted geometric mean | – | AUC(0-inf) | 7280 ng·h/mL |
| CO[C@H]1C[C@@H]2CC[C@@H](C)[C@@](O)(O2)C(=O)C(=O)N2CCCC[C@H]2C(=O)O[C@H]([C@H](C)C[C@@H]2CC[C@@H](O)[C@H](OC)C2)CC(=O)[C@H](C)/C=C(\C)[C@@H](O)[C@@H](OC)C(=O)[C@H](C)C[C@H](C)/C=C/C=C/C=C/1C | – | healthy adult horses | intravenous, 0.06 mg/kg, 72 h | – | heart rate | 33.3 ± 6.2 beats/min |
| Cc1cc(Nc2ccc(S(F)(F)(F)(F)F)cc2)n2nc(C(C)(F)F)nc2n1 | – | Plasmodium vivax malaria patients | oral, 800 mg | – | adverse event gastrointestinal disorders | 28.6% |
| CN1CCN(C(=O)c2ccc([C@H]3[C@@H](F)[C@@H](F)C[C@@H](F)[C@H]3F)cc2)CC1=O | liver microsome stability | human liver microsomes | 1 µM, without NADPH | – | hepatic clearance | 3.9 mL/min/kg |
| O=C(O)CCC(=O)O.[2H]C([2H])([2H])Oc1cc(C)c2[nH]ccc2c1CN1CC[C@@H](C2CC2)C[C@H]1c1ccc(C(=O)O)cc1 | – | healthy Chinese subjects | 50 mg, single ascending dose | – | TEAE decreased neutrophil | 0% |
| O=C(Cn1ccnc1)Nc1ccc(C2CCCCC2)cc1 | – | rat liver microsomes | 1 µM | – | hepatic clearance | 19 mL/min/kg |
| COc1ccc2c(c1)CN(C(=O)CCN1CCC(Cc3ccccc3)CC1)CC[S@@+]2[O-] | telemetry | conscious dog | intravenous, 2 mg/kg, 2 h | – | diastolic blood pressure | 83 ± 15 mmHg |
| C[Si]1(C)O[Si](C)(C)O[Si](C)(C)O[Si](C)(C)O[Si](C)(C)O[Si](C)(C)O1 | IVIVE from S9 | rainbow trout (Oncorhynchus mykiss) | – | – | hepatic biotransformation rate constant | 0.018 h⁻¹ and 0.024 h⁻¹ and 0.032 h⁻¹ |
| CC(C)Cn1cnc2c(N)nc3ccccc3c21 | – | C57BL/6J mice, male, beta-naphthoflavone-treated, liver microsomes | 1 µM, 30 min | – | remaining compound | 3.5% |
| C=CC(=O)Nc1cc(Nc2nccc(-c3cn(C)c4ccccc34)n2)c(OC)cc1N(C)CCN(C)C | storage stability | human plasma | 30 d, on ice, LLOQ level | – | recovery | 42.3% |
| COc1cc2nccc(Oc3ccc(NC(=O)c4cc5c(n(-c6ccccc6)c4=O)CCCC5=O)nc3)c2cc1OC | – | relapsed or refractory AML | oral, all dose levels | – | grade ≥3 Hyperglycaemia patients | 10% |
| CNC(=O)c1ccc(-c2cnc3ncc(Cc4ccc5ncccc5c4)n3n2)cc1F | – | healthy human subjects | oral, 200 mg, grade 3, all causality, together with: itraconazole 200 mg/day | – | subjects with adverse events | 11.1% |
| C[C@]12CC[C@@H]3c4ccc(O)cc4CC[C@H]3[C@@H]1CCC2=O | – | whole cow milk | 2000 nM nominal | – | dose fraction in skim milk | 23.3% |
| C=CCN1CC(=O)N2[C@@H](Cc3ccc(O)cc3F)C(=O)N(Cc3cccc(N4CC(N5CCN(CC)CC5)C4)n3)C[C@@H]2N1C(=O)NCc1ccccc1 | – | advanced solid tumour patients | oral, 120 mg twice daily, grade ≥3, dose-escalation | – | treatment-related nausea | 0% |
| Cl.[2H]C([2H])([2H])CC(=O)c1cnc(NC(=O)C2CC2)cc1Nc1cccc(-c2ncn(C([2H])([2H])[2H])n2)c1OC | – | human, fed, multiple dose | oral, 60 mg once daily, tablet, day 14, geometric mean | – | Cmax | 504 ng/mL |
| CN1CCN(C(=O)c2ccc(C3CCCCC3)cc2)CC1=O | hepatocyte stability | cryopreserved human hepatocytes | 1 µM | – | hepatic clearance | 7.9 mL/min/kg |
| COc1ccnc(C(=O)N[C@H]2COC(=O)[C@H](Cc3ccccc3)[C@@H](O)[C@H](C)OC2=O)c1O | soil adsorption | clay loam soil | pH 7.2, organic carbon 4.4 % | – | KFoc | 266 mL/g |
